Measured values gathered from unrelated publications.
Each line is one published result; not all experiments were run side by side.
Organism: Candida albicans

| Structure (SMILES) | assay | test system | conditions | scale | MIC |
| --- | --- | --- | --- | --- | --- |
| C[C@@H](c1ccn(Cc2cc(F)c(F)c(F)c2)n1)[C@](O)(Cn1cnnn1)c1ccc(F)cc1F | growth, broth microdilution | SC5314 | 24 h, 30 °C, ≥50% inhibition | – | 0.016 µg/mL |
| O=C(NCCNCCO)c1cn(Cc2ccccc2)c2c(Cl)c(OCc3ccc(C(F)(F)F)cc3)c(Cl)cc2c1=O | – | ATCC 90028 | – | ≥80% growth inhibition | > 32 µg/mL |
| C[C@@H](c1ccn(Cc2ccc(Cl)cc2Cl)n1)[C@](O)(Cn1cnnn1)c1ccc(F)cc1F | growth, broth microdilution | SC5314 | 24 h, 30 °C, ≥50% inhibition | – | < 0.008 µg/mL |
| C/C(=N/NC(=N)N)c1nnn(-c2ccc(C#CC(C)(C)C)cc2)c1C | microbial growth, broth dilution | – | – | – | 4 µg/mL |
| COc1ccc(N2C(=O)C=CC2=O)cc1 | microbial growth, broth dilution | – | – | – | 1 µg/mL |
| CC1C(=O)NC(=O)N1/N=C/c1ccc([N+](=O)[O-])o1 (stereo not drawn) | microbial growth, broth dilution | ATCC14053 | 18 h | – | > 50 µg/mL |
| CC(=NNC(=N)N)c1nnn(-c2ccc(C#CC3(O)CCCCC3)cc2)c1C | microbial growth | ATCC10231 | – | – | 7.8 µg/mL |
| CCCSC1COC(=O)N1/N=C/c1ccc([N+](=O)[O-])o1 (stereo not drawn) | microbial growth, broth dilution | ATCC14053 | 18 h | – | > 50 µg/mL |
| C[C@@H](c1ccn(Cc2ccc(F)cc2)n1)[C@](O)(Cn1cnnn1)c1ccc(F)cc1F | growth, broth microdilution | SC5314 | 24 h, 30 °C, ≥50% inhibition | – | < 0.008 µg/mL |
| N#Cc1ccc2cccc(O)c2n1 | microbial growth, agar dilution | ATCC90028 | – | – | 1500 µM |
| O=C(NCCNCCO)c1cn(Cc2ccc(F)cc2)c2cc(Cl)c(OCc3ccc(C(F)(F)F)cc3)cc2c1=O | – | ATCC 90028 | – | ≥80% growth inhibition | > 32 µg/mL |
| COC(=O)C1=COC(OC2OC(CO)C(O)C(O)C2O)C2C1C(OC(C)=O)CC2(C)O (stereo not drawn) | microbial growth, disc diffusion | – | – | – | 100 µM |
| CCC(O)CC#Cc1ccc(-n2nnc(/C(C)=N\NC(=N)N)c2C)cc1 (stereo not drawn) | microbial growth, broth dilution | – | – | – | > 64 µg/mL |
| C/C(=N\Nc1nc(C)cs1)c1ccc2c(c1)sc1nc(=O)c(C#N)cn12 | broth microdilution | – | – | – | < 241 µg/mL |
| CN(Cc1cc(C2CC2)on1)C(=O)c1cccc(-c2ccc3c(c2)CCO3)c1 | microbial growth, broth dilution | SC5314 | – | – | > 64 µg/mL |
| COc1ccc(-c2c(O)oc3c(CC=C(C)C)c(O)cc(O)c3c2=O)cc1 | – | NR-29450 | 48 h, 37 °C | – | > 500 µg/mL |
| O=c1c2ccccc2sn1-c1cc(Br)cc(Br)c1 | growth, broth dilution | ATCC 10231 | MIC-0 | – | 3.13 µg/mL |
| CCn1cc(C(=O)NCCNCCO)c(=O)c2cc(OCc3ccc(C(C)(C)C)cc3)c(Cl)cc21 | – | ATCC 90028 | – | ≥80% growth inhibition | 16 µg/mL |
| CC(C)c1ccc(Cn2ccc([C@H](C)[C@](O)(Cn3cnnn3)c3ccc(F)cc3F)n2)cc1 | CLSI broth microdilution | SC5314 | 24 h | – | < 0.008 µg/mL |
| COc1cc2c(=O)c(C(=O)NCCNCCO)cn(Cc3ccccc3)c2cc1OCc1ccc(C(C)(C)C)cc1 | – | ATCC 90028 | – | ≥80% growth inhibition | 4 µg/mL |

| Structure (SMILES) | assay | test system | conditions | scale | MIC |
| --- | --- | --- | --- | --- | --- |
| NC(=O)C1COC(=O)N1/N=C/c1ccc([N+](=O)[O-])o1 (stereo not drawn) | microbial growth, broth dilution | ATCC14053 | 18 h | – | > 50 µg/mL |
| CC(C)=CCc1cc2c(cc1O)OC[C@H]1c3ccc(O)c(CC=C(C)C)c3O[C@@H]21 | – | ATCC 10231 | – | – | 4 µg/mL |
| O=C(CC1COC(=O)N1/N=C/c1ccc([N+](=O)[O-])o1)c1ccccc1 (stereo not drawn) | microbial growth, broth dilution | ATCC14053 | 18 h | – | > 50 µg/mL |
| C/C(=N\NC(N)=S)c1ccc2c(c1)sc1nc(=O)c(C#N)cn12 | microbial growth, broth dilution | – | – | – | < 210 µg/mL |
| Cc1ccc(Cn2ccc([C@H](C)[C@](O)(Cn3cnnn3)c3ccc(F)cc3F)n2)cc1 | growth, broth microdilution | SC5314 | 24 h, 30 °C, ≥50% inhibition | – | < 0.008 µg/mL |
| CCCCCC1CC2CCCC3CC(C)N=C(N1)N32 (stereo not drawn) | fungal growth | ATCC 90028 | – | – | 31.7 µM |
| CSC1COC(=O)N1/N=C/c1ccc([N+](=O)[O-])o1 (stereo not drawn) | microbial growth, broth dilution | ATCC14053 | 18 h | – | > 50 µg/mL |
| C[C@@H](c1ccn(Cc2cc(F)ccc2F)n1)[C@](O)(Cn1cnnn1)c1ccc(F)cc1F | growth, broth microdilution | SC5314 | 24 h, 30 °C, ≥50% inhibition | – | 0.032 µg/mL |
| CC(=O)c1ccc2c(c1)sc1nc(=O)c(C#N)cn12 | broth microdilution | – | – | – | < 213 µg/mL |
| COC(=O)[C@]1(O)C[C@@H](O)[C@@H](O)[C@H](OC(=O)/C=C/c2ccc(O)c(O)c2)C1 | microbial growth, broth dilution | – | 48 h | – | 37.5 µM |
| COc1ccc(-c2csc(N/N=C(\C)c3ccc4c(c3)sc3nc(=O)c(C#N)cn34)n2)cc1 | microbial growth, broth dilution | – | – | – | < 192 µg/mL |
| O=C1OCC(SCc2ccccc2)N1/N=C/c1ccc([N+](=O)[O-])o1 (stereo not drawn) | microbial growth, broth dilution | ATCC14053 | 18 h | – | > 50 µg/mL |
| C/C(=N\Nc1nc(-c2ccc(Cl)cc2)cs1)c1ccc2c(c1)sc1nc(=O)c(C#N)cn12 | broth microdilution | – | – | – | < 207 µg/mL |
| C[Si](C)(C)Cc1ccc(C2COC(=O)N2/N=C/c2ccc([N+](=O)[O-])o2)cc1 (stereo not drawn) | microbial growth, broth dilution | ATCC14053 | 18 h | – | > 50 µg/mL |
| C/C(=N\NC1=NC(=O)CS1)c1ccc2c(c1)sc1nc(=O)c(C#N)cn12 | microbial growth, broth dilution | – | – | – | < 218 µg/mL |
| C[C@@H](c1ccn(Cc2ccc(I)cc2)n1)[C@](O)(Cn1cnnn1)c1ccc(F)cc1F | growth, broth microdilution | SC5314 | 24 h, 30 °C, ≥50% inhibition | – | < 0.008 µg/mL |
| COc1c2c(cc3c1[C@@H]1Oc4c(ccc(O)c4CC=C(C)C)[C@@H]1CO3)OC(C)(C)C=C2 | – | ATCC 10231 | – | – | 128 µg/mL |
| C[C@@H](c1ccn(Cc2ccc(F)c(Cl)c2)n1)[C@](O)(Cn1cnnn1)c1ccc(F)cc1F | growth, broth microdilution | SC5314 | 24 h, 30 °C, ≥50% inhibition | – | < 0.008 µg/mL |
| C=CCC1COC(=O)N1/N=C/c1ccc([N+](=O)[O-])o1 (stereo not drawn) | microbial growth, broth dilution | ATCC14053 | 18 h | – | > 50 µg/mL |
